Published values gathered from unrelated publications.
Protocols differ between the studies behind these lines. Values joined by “and” are separate records of one study, mostly repeats; a detail may differ. Numbers after ± are the reported error.
U2AF2: U2AF2 148-342 (Homo sapiens, UniProt P26368)
UniProt P26368, sequence (whole entry, looked up): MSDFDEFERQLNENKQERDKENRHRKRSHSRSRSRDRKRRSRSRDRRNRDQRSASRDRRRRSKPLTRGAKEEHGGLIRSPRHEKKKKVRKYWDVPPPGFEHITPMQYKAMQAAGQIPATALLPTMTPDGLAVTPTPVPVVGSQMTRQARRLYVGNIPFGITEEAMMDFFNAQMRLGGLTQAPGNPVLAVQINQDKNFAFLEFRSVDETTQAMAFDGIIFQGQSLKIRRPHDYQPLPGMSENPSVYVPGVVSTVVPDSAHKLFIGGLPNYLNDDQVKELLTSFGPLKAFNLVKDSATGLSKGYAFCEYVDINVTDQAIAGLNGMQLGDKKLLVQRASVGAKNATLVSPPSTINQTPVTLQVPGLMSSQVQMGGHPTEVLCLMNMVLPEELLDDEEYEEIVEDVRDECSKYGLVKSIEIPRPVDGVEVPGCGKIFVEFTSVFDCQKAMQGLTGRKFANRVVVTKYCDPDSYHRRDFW
B1: POF1B (human); sequence looked up; chain MSSSYWSETSSSSCGTQQLPEVLQCQPQHYHCYHQSSQAQQPPEKNVVYERVRTYSGPMNKVVQALDPFNSREVLSPLKTTSSYQNLVWSDHSQELHSPTLKISTCAPSTLHITQNTEQELHSPTVKLTTYPQTTIRKYVVQNPEQEPLSQFLRGSHFFPGNNVIYEKTIRKVEKLNTDQGCHPQAQCHHHIIQQPQVIHSAHWQQPDSSQQIQAITGNNPISTHIGNELCHSGSSQICEQVIIQDDGPEKLDPRYFGELLADLSRKNTDLYHCLLEHLQRIGGSKQDFESTDESEDIESLIPKGLSEFTKQQIRYILQMRGMSDKSLRLVLSTFSNIREELGHLQNDMTSLENDKMRLEKDLSFKDTQLKEYEELLASVRANNHQQQQGLQDSSSKCQALEENNLSLRHTLSDMEYRLKELEYCKRNLEQENQNLRMQVSETCTGPMLQAKMDEIGNHYTEMVKNLRMEKDREICRLRSQLNQYHKDVSKREGSCSDFQFKLHELTSLLEEKDSLIKRQSEELSKLRQEIYSSHNQPSTGGRTTITTKKYRTQYPILGLLYDDYEYIPPGSETQTIVIEKTEDKYTCP
B2: human RBM10; sequence looked up; chain MEYERRGGRGDRTGRYGATDRSQDDGGENRSRDHDYRDMDYRSYPREYGSQEGKHDYDDSSEEQSAEDSYEASPGSETQRRRRRRHRHSPTGPPGFPRDGDYRDQDYRTEQGEEEEEEEDEEEEEKASNIVMLRMLPQAATEDDIRGQLQSHGVQAREVRLMRNKSSGQSRGFAFVEFSHLQDATRWMEANQHSLNILGQKVSMHYSDPKPKINEDWLCNKCGVQNFKRREKCFKCGVPKSEAEQKLPLGTRLDQQTLPLGGRELSQGLLPLPQPYQAQGVLASQALSQGSEPSSENANDTIILRNLNPHSTMDSILGALAPYAVLSSSNVRVIKDKQTQLNRGFAFIQLSTIVEAAQLLQILQALHPPLTIDGKTINVEFAKGSKRDMASNEGSRISAASVASTAIAAAQWAISQASQGGEGTWATSEEPPVDYSYYQQDEGYGNSQGTESSLYAHGYLKGTKGPGITGTKGDPTGAGPEASLEPGADSVSMQAFSRAQPGAAPGIYQQSAEASSSQGTAANSQSYTIMSPAVLKSELQSPTHPSSALPPATSPTAQESYSQYPVPDVSTYQYDETSGYYYDPQTGLYYDPNSQYYYNAQSQQYLYWDGERRTYVPALEQSADGHKETGAPSKEGKEKKEKHKTKTAQQIAKDMERWARSLNKQKENFKNSFQPISSLRDDERRESATADAGYAILEKKGALAERQHTSMDLPKLASDDRPSPPRGLVAAYSGESDSEEEQERGGPEREEKLTDWQKLACLLCRRQFPSKEALIRHQQLSGLHKQNLEIHRRAHLSENELEALEKNDMEQMKYRDRAAERREKYGIPEPPEPKRRKYGGISTASVDFEQPTRDGLGSDNIGSRMLQAMGWKEGSGLGRKKQGIVTPIEAQTRVRGSGLGARGSSYGVTSTESYKETLHKTMVTRFNEAQ
B3: poly(rC)-binding protein 2, human; sequence looked up; chain MDTGVIEGGLNVTLTIRLLMHGKEVGSIIGKKGESVKKMREESGARINISEGNCPERIITLAGPTNAIFKAFAMIIDKLEEDISSSMTNSTAASRPPVTLRLVVPASQCGSLIGKGGCKIKEIRESTGAQVQVAGDMLPNSTERAITIAGIPQSIIECVKQICVVMLETLSQSPPKGVTIPYRPKPSSSPVIFAGGQDRYSTGSDSASFPHTTPSMCLNPDLEGPPLEAYTIQGQYAIPQPDLTKLHQLAMQQSHFPMTHGNTGFSGIESSSPEVKGYWGLDASAQTTSHELTIPNDLIGCIIGRQGAKINEIRQMSGAQIKIANPVEGSTDRQVTITGSAASISLAQYLINVRLSSETGGMGSS
UniProt P13393, sequence (whole entry, looked up): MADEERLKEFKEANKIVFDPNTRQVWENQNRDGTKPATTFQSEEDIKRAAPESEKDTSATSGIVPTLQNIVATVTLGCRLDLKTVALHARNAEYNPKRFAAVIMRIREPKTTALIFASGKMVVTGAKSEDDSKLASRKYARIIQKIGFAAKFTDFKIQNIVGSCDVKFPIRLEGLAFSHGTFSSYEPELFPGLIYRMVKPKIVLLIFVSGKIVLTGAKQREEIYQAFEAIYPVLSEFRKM

ESDPITSAY — GFP-positive cells (Jurkat expressing engineered TCR; NFAT-eGFP reporter, fluorescence microscopy; peptide; concentration not given, HLA-A*01:01 on EL4 cells): 2.99%
B1 (POF1B) — log2 fold change (CYB5R4 knockout human cells; PP4 interaction, 3xFLAG-PP4C IP-MS; concentration not given; relative to: CYB5R4 KO over parental): 1.5
human ME2 Q101T — Hill coefficient (enzyme activity, NADH absorbance; without fumarate, added: L-malate varied): 1.75 ± 0.06
verteporfin — inhibition (BT-12; cell viability, MTT; 10 µM, 72 h): 92.7%
epoetin alfa — mRNA level (UT7/EPO; RT-qPCR, refers to: SOCS3; concentration not given, 90 min, normalized to HPRT1; relative to: vehicle): 77.9 fold
Pam2CSK4 — protein level (BV-2; Western blot, refers to: MARCO; concentration not given, unit not given; relative to: control): 3.24 and 4.28 and 2.89
GCCCUAUUC (ssRNA) — Kd (U2AF2; sequencing of bound RNA; RNA; motif only): 5.39 µM
GTDYVAGGM — GFP-positive cells (Jurkat expressing engineered TCR; NFAT-eGFP reporter, fluorescence microscopy; peptide; concentration not given, HLA-A*01:01 on EL4 cells): 0.379%
B2 (human RBM10) — log2 fold change (CYB5R4 knockout human cells; PP6 interaction, 3xFLAG-PP6C IP-MS; concentration not given; relative to: CYB5R4 KO over parental): -0.64
CCUUGUAUU (ssRNA) — Kd (U2AF2; sequencing of bound RNA; RNA; motif only): 8.65 µM
GTATAAAAGTTCCTGAAGGGGGGGCGGGGTGGGGGTCAAGTCAATCGGTCC (dsDNA; 5'-amino-C6 primer) — Kd (SPT15 full length assumed (Saccharomyces cerevisiae, UniProt P13393); array; double-stranded DNA, one strand shown; TBP alone): 0.00123 ± 5e-05 µM
PTBP3 (human) — log2 fold change (CYB5R4 knockout human cells; PP4 interaction, 3xFLAG-PP4C IP-MS; concentration not given; relative to: CYB5R4 KO over parental): -1.25
EIDPIGHNF — GFP-positive cells (Jurkat expressing engineered TCR; NFAT-eGFP reporter, fluorescence microscopy; peptide; concentration not given, HLA-A*01:01 on EL4 cells): 0.473%
human myosin-9 — log2 fold change (CYB5R4 knockout human cells; PP4 interaction, 3xFLAG-PP4C IP-MS; concentration not given; relative to: CYB5R4 KO over parental): -0.3
Peginesatide — phosphorylation level (UT7/EPO; tyrosine phosphorylation, LC-MS/MS phosphoproteomics, GluC, refers to: FRK tyrosine 497; 10 nM, 15 min, added: 10 U/mL EPO; relative to: vehicle): 4.7 fold
QSDPIGHEY — GFP-positive cells (Jurkat expressing engineered TCR; NFAT-eGFP reporter, fluorescence microscopy; peptide; concentration not given, HLA-A*01:01 on EL4 cells): 0.904%
B3 — log2 fold change (CYB5R4 knockout human cells; PP4 interaction, 3xFLAG-PP4C IP-MS; concentration not given; relative to: CYB5R4 KO over parental): 0.74
MTVCNASQRQAHAQATAVSL — selectivity ratio (LNCaP; phage binding; peptide; relative to: targeting over control phage): 0.13 ± 0.06
RSDPIPLGM — GFP-positive cells (Jurkat expressing engineered TCR; NFAT-eGFP reporter, fluorescence microscopy; peptide; concentration not given, HLA-A*01:01 on EL4 cells): 0.473%

A few entries again:
CCUUGUAUU (ssRNA) — Kd (U2AF2; sequencing of bound RNA; RNA; motif only): 8.65 µM
GTATAAAAGTTCCTGAAGGGGGGGCGGGGTGGGGGTCAAGTCAATCGGTCC (dsDNA; 5'-amino-C6 primer) — Kd (SPT15 full length assumed (Saccharomyces cerevisiae, UniProt P13393); array; double-stranded DNA, one strand shown; TBP alone): 0.00123 ± 5e-05 µM
